Results gathered from unrelated publications.
Each numbered part is a random draw from the data of one study; scales do not carry over between parts.

Study 1
Target: Sal-like protein 4, full length isoform A (SALL4, Homo sapiens, UniProt Q9UJQ4, residues 1-1053)
Chain of UniProt Q9UJQ4 (whole entry, looked up): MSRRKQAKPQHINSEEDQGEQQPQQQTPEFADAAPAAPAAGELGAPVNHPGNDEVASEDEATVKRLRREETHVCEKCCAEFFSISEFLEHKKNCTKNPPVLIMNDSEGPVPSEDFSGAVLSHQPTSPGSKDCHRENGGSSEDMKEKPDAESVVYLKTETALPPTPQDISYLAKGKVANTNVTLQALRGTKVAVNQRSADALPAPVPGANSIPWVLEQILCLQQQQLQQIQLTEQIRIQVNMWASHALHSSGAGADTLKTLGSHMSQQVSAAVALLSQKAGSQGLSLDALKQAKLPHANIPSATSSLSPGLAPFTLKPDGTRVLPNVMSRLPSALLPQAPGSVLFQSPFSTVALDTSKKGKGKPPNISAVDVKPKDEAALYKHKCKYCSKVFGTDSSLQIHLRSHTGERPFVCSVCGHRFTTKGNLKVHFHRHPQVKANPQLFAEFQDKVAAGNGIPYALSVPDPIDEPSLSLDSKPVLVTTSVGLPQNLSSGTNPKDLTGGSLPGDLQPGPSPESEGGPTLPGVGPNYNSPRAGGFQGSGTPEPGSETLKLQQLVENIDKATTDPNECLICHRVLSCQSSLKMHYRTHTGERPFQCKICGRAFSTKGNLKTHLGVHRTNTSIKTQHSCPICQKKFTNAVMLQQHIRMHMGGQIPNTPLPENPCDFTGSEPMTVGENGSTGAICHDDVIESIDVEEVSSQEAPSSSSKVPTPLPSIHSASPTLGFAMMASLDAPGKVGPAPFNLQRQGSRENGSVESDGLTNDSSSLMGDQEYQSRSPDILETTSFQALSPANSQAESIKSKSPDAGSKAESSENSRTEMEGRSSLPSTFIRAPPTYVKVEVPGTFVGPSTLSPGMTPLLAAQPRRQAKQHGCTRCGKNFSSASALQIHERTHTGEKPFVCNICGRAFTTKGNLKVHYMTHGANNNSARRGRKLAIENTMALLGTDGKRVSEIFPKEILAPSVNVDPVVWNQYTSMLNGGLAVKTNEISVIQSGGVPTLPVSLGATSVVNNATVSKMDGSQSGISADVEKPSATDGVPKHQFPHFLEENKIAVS
Technique: universal PBM
Molecule type: double-stranded DNA, one strand shown
Sample: in vitro
Concentration: 600 nM
Notes: 8-mer, flanks averaged, mean of replicates
Reading: higher = stronger binding
`GGCTCAGA` has an E-score of -0.131.
With `CTCGTCAC` the E-score was 0.0329.
For `AATGACTA`, the E-score was 0.165.
For `CAAAGAGG`, the E-score was -0.204.
For `GTGGCCTA`, the E-score was -0.179.
`ATCGAGGC` gave an E-score of -0.0594.
For `CACCGTAC`, the E-score was -0.148.

Study 2
Target: PABPC1L2, full length, GST fusion (mouse, UniProt A0ABA7IW68)
Technique: RNAcompete
Molecule type: RNA
Sample: in vitro
Concentration: 20 nM
Notes: 7-mer, probes averaged, single round
Reference: mean of 7-mers
Reading: higher = stronger binding
Residues (chain): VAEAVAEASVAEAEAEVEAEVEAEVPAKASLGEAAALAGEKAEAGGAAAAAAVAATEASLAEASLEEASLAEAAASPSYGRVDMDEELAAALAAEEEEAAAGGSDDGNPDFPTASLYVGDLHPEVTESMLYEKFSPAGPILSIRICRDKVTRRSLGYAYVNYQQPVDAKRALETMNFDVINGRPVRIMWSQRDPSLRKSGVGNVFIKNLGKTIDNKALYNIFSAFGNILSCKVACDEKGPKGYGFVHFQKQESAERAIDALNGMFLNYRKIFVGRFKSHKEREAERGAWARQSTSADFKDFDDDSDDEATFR
`AGCCCAC` gave a 7-mer Z-score of -0.351.
The 7-mer Z-score of `CGCUUUU` is reported as -0.17.
`UCAGAUU` gave a 7-mer Z-score of -0.199.
For `GAGGCCG`, the 7-mer Z-score was 0.0859.
The 7-mer Z-score of `GCCCAAU` is reported as -0.231.

Study 3
Target: Histone acetyltransferase KAT6A, both winged helices, GST fusion (KAT6A, Homo sapiens, UniProt Q92794, residues 1-181)
Technique: protein binding microarray
Molecule type: double-stranded DNA, one strand shown
Sample: in vitro
Concentration: not given
Notes: 8-mer, flanks averaged, mean of 2 arrays, mostly near background
Reference: not given
Reading: higher = stronger binding
Residues (chain): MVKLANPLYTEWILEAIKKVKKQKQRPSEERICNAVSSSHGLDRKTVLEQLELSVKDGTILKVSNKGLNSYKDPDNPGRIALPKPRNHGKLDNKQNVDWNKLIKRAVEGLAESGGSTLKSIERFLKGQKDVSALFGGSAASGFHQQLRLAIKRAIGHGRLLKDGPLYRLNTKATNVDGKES
`ACAAGGCA` gave an E-score of -0.226.
The E-score of `ATTAAGTA` is reported as -0.106.
With `ATCACGCA` the E-score was 0.132.
`CACGTATC` gave an E-score of -0.0831.
The E-score of `ACGGTTGG` is reported as 0.0027.
`ACGGTATA` has an E-score of 0.212.
`ATACAGCG` gave an E-score of 0.122.

Single results of other studies
`PhoQ, residues 284 288 289 292 302 303 TASMAF` gave a fold induction of 28.9 (PhoP, residues 12 14 15 18 19 SFCSL (Escherichia coli, UniProt P23836); Sort-seq, refers to: YFP reporter; E. coli; PhoQ-PhoP variant library, together with: 10 µM Mg2+; reference: high Mg2+ state, higher = stronger signaling).

Excerpt of the above (study 2):
`UCAGAUU` gave a 7-mer Z-score of -0.199.
For `GAGGCCG`, the 7-mer Z-score was 0.0859.
